Assay results gathered from unrelated publications.
Protocols differ between the studies behind these lines. Several values in a cell are separate wells, animals, samples, runs or records. Numbers after ± are the reported error.
ABL1 H396P: Tyrosine-protein kinase ABL1 (ABL1, Homo sapiens, UniProt P00519, H396P)
Sequence of UniProt P00519 (whole entry, unmodified, looked up): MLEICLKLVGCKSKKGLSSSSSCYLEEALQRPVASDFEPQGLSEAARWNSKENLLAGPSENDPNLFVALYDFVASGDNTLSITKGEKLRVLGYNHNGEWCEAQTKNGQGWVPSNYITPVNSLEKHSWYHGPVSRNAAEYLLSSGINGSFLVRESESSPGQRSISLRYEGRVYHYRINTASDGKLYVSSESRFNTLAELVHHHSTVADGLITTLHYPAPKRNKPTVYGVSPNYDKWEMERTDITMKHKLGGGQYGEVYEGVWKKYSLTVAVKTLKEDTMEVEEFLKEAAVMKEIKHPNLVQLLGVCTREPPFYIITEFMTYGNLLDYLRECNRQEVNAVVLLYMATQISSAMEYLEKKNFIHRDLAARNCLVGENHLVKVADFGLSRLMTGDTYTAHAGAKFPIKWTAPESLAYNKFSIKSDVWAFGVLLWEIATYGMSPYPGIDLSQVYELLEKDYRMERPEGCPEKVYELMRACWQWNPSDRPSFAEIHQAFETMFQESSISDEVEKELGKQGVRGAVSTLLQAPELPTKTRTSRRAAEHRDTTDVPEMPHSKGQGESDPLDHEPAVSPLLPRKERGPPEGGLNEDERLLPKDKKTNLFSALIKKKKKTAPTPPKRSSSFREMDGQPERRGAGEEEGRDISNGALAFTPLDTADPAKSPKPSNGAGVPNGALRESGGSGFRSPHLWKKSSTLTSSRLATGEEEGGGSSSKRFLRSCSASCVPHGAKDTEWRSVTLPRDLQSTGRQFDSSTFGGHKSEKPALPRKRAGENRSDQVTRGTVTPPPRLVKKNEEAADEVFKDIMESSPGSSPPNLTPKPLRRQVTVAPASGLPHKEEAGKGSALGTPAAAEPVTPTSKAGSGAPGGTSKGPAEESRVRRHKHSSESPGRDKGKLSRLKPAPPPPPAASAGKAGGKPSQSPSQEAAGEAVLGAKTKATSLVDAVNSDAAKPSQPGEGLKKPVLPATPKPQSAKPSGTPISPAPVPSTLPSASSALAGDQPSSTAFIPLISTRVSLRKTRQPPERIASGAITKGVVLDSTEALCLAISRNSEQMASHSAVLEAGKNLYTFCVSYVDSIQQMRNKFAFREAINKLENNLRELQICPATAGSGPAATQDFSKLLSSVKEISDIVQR
SET K222D: Protein SET (SET, Homo sapiens, UniProt Q01105, K222D)
Sequence of UniProt Q01105 (whole entry, unmodified, looked up): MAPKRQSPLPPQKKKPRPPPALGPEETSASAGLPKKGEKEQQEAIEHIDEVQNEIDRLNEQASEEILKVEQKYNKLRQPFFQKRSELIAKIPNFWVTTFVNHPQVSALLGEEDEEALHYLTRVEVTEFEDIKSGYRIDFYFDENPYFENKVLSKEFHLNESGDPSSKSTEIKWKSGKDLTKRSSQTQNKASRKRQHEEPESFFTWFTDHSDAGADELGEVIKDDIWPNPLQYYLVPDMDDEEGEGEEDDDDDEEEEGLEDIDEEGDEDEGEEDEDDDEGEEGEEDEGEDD
Aryl hydrocarbon receptor: Aryl hydrocarbon receptor (Danio rerio, UniProt Q9YGV3)
NR1H3: Oxysterols receptor LXR-alpha (NR1H3, Homo sapiens, UniProt Q13133)
Sequence of UniProt Q13133 (whole entry, looked up): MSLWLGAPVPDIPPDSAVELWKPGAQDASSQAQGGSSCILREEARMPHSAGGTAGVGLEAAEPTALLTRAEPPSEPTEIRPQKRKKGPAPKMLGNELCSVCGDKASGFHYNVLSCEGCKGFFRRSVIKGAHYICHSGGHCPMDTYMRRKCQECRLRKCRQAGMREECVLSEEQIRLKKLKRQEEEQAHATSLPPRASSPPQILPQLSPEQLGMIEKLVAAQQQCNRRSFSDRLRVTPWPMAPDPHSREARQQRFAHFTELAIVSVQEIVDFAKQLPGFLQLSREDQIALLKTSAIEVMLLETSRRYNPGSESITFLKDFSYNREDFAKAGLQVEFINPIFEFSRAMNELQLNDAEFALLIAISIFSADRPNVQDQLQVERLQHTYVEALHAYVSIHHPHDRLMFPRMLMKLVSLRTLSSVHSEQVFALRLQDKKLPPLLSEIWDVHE
ABL1 F317I: Tyrosine-protein kinase ABL1 (ABL1, Homo sapiens, UniProt P00519, F317I)
T1: DNA aptamer; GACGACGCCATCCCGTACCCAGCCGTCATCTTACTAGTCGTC
T2: riboswitch RNA yjdF aptamer (Bacillus subtilis); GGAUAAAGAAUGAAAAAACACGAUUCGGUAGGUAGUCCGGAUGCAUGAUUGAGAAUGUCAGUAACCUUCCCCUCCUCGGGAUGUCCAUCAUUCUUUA
Sequence of UniProt Q80VM9 (whole entry, looked up): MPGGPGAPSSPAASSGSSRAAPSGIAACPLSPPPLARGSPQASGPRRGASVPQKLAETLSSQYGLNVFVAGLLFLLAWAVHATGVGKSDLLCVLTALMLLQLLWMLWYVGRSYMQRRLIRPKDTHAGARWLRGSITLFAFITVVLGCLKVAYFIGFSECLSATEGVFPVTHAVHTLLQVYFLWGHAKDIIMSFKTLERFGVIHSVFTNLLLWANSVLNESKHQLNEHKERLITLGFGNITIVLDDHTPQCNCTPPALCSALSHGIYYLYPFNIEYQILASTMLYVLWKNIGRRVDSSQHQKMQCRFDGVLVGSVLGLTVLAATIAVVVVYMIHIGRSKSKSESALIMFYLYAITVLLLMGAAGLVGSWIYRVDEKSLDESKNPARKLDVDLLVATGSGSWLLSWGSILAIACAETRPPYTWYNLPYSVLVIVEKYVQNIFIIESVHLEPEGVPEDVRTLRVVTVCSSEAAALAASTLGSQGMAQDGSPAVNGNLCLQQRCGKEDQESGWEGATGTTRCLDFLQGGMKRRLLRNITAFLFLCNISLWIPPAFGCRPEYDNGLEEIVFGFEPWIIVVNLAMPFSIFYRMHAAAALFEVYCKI
Sequence of UniProt Q16774 (whole entry, looked up): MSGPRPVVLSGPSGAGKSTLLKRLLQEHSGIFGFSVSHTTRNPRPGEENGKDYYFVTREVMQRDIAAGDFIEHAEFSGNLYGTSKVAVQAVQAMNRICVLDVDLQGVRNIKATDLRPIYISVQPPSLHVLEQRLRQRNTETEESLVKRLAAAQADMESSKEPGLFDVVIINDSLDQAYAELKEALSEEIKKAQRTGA
Sequence of UniProt P51575 (whole entry, unmodified, looked up): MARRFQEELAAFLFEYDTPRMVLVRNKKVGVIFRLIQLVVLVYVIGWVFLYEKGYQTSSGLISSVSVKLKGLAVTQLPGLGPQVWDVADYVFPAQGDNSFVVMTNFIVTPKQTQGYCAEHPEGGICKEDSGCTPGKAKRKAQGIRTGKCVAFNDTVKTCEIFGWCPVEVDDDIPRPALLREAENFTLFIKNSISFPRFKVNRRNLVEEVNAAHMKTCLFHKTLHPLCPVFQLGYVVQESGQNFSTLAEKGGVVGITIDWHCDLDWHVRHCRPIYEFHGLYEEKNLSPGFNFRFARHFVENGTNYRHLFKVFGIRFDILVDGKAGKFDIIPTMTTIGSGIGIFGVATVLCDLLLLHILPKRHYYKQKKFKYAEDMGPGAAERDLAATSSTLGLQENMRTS
Sequence of UniProt P31941 (whole entry, looked up): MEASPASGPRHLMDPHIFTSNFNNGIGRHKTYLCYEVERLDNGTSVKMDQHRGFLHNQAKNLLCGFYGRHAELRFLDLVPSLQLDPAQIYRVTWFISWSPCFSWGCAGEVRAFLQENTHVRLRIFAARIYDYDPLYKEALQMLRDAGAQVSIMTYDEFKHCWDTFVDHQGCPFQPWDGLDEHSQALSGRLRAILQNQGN
Sequence of UniProt P61962 (whole entry, looked up): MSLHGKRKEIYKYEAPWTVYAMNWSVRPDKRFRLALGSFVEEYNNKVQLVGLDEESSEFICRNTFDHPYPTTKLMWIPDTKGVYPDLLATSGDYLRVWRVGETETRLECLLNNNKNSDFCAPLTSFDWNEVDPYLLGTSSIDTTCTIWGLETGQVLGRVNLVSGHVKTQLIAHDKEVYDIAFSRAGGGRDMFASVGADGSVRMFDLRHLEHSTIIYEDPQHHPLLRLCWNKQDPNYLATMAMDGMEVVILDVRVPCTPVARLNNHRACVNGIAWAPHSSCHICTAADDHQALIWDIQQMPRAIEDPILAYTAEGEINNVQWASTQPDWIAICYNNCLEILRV
Sequence of UniProt Q60893 (whole entry, looked up): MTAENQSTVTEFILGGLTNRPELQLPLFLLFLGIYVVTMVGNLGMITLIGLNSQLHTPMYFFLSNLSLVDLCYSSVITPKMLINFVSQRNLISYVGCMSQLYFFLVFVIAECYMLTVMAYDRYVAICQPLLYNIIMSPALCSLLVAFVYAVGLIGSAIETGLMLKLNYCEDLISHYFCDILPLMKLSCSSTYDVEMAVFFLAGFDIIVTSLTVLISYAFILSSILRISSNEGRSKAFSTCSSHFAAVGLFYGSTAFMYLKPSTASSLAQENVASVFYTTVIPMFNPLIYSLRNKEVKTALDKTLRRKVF
Sequence of UniProt P17787 (whole entry, looked up): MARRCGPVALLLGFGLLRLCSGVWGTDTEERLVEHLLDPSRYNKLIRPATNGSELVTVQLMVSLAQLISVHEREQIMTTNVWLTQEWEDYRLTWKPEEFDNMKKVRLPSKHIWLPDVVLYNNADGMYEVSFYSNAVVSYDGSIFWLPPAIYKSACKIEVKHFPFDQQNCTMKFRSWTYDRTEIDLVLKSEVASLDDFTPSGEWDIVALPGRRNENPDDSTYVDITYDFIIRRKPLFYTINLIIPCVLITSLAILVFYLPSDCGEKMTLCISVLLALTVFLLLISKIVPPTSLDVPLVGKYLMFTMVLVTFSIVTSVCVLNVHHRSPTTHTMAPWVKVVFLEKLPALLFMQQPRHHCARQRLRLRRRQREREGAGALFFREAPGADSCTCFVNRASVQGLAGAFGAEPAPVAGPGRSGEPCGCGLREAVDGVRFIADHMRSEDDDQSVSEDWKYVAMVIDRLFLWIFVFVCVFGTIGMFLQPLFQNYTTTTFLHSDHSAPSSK
Sequence of UniProt P25963 (whole entry, unmodified, looked up): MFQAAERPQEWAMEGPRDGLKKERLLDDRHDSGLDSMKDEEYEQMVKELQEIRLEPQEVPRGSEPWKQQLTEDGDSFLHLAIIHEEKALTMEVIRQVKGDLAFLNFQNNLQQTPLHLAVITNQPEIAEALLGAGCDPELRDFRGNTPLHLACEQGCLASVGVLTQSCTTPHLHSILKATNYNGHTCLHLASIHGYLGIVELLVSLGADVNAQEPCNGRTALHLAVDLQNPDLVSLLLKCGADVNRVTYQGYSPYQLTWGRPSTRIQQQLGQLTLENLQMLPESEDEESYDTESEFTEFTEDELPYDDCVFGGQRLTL
Sequence of UniProt P02754 (whole entry, looked up): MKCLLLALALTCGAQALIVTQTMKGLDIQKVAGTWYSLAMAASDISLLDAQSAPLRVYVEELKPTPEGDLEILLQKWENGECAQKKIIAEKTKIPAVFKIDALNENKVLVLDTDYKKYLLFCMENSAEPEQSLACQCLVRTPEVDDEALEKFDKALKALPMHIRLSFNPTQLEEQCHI

`CC1(C)S[C@@H]2[C@H](NC(=O)[C@H](N)c3ccccc3)C(=O)N2[C@H]1C(=O)O` gave a Kd of 1800 nM (T1, DNA aptamer; ITC).
`C[C@H]1CCN(c2nccc(-c3cnn4ncccc34)n2)C1` has a remaining binding of 66% (ABL1 H396P; 1 µM; baseline: control).
For `CC[C@@H]1[C@H](F)C(=O)N[C@@H]1COc1nccc2cc(C(N)=O)c(OC)cc12`, the inhibition was -3.4% (Aurora kinase A (AURKA, Homo sapiens, UniProt O14965); ATP probe binding, KiNativ profiling, refers to: Lys1 probe site; THP-1 cell lysate; 0.01 mM).
`CCCCCCCCCCCCC/C=C/[C@@H](O)[C@H](CO)NC(=O)CCCCCCCCCCCCCCCCC` — result for “bound endogenous lipid”: 3.5 (SET K222D; lipid binding, GFP pull-down LC-MS/MS; A549 overexpressing GFP-tagged protein; unit not given; baseline: vector-transfected cells).
`Cc1cc2nc3[nH]c(=O)[nH]c(=O)c3nc2cc1C` gave a Kd of 1800 nM (T2, riboswitch RNA yjdF aptamer (Bacillus subtilis); fluorescence titration; with: 380 nM lumichrome).
Under “log fold enrichment”, `Cc1ccc(N2CC(C(N)=O)CC2=O)cc1` (stereo not drawn) is recorded as 0 (DDB1- and CUL4-associated factor 7 (Homo sapiens, UniProt P61962); binding, affinity selection mass spectrometry; baseline: other proteins in batch).
`CC[C@H](C)[C@H](NC(=O)[C@H](CO)NC(=O)[C@H](CCCCN)NC(=O)[C@H](Cc1ccccc1)NC(=O)[C@@H](NC(=O)[C@H](CCC(=O)O)NC(=O)[C@H](Cc1ccc(O)cc1)NC(=O)[C@@H](NC(=O)[C@H](CCCNC(=N)N)NC(=O)[C@H](CCCCN)NC(=O)[C@H](CCCNC(=N)N)NC(=O)[C@H](CCCCN)NC(=O)[C@H](CCC(=O)O)NC(=O)[C@H](CCC(=O)O)NC(=O)[C@@H](NC(=O)[C@H](CCCNC(=N)N)NC(=O)[C@H](Cc1c[nH]cn1)NC(=O)[C@H](CCCNC(=N)N)NC(=O)[C@H](CC(=O)O)NC(=O)[C@H](CC(=O)O)NC(=O)[C@@H](NC(=O)[C@H](CC(=O)O)NC(=O)[C@@H]1CCCN1C(=O)[C@@H](N)CC(C)C)[C@@H](C)O)[C@@H](C)CC)[C@@H](C)O)[C@@H](C)O)C(=O)N[C@@H](C)C(=O)N[C@@H](CCCCN)C(=O)N[C@@H](CCCCN)C(=O)N[C@@H](CO)C(=O)N1CCC[C@H]1C(=O)N[C@@H](Cc1ccccc1)C(=O)N[C@@H](CC(N)=O)C(=O)NCC(=O)N1CCC[C@H]1C(=O)O` has a ΔG of -8.1 ± 0.1 kcal/mol (NF-kappa-B inhibitor alpha (Homo sapiens, UniProt P25963); binding, ITC; pH 7.5, 293 K, 50 mM NaCl).
The remaining binding of `c1cnn2ncc(-c3ccnc(N4CCC45COC5)n3)c2c1` is reported as 70% (ABL1 H396P; KINOMEscan; 1 µM; baseline: control).
`COc1cc(-c2cncc3c2CN(C)Cc2cc(N4CCNCC4)ccc2-3)cc(OC)c1OC` has a remaining activity of 113% ([Pyruvate dehydrogenase (acetyl-transferring)] kinase isozyme 4, mitochondrial (PDK4, Homo sapiens, UniProt Q16654); kinase activity; 1 µM, human enzyme, with: ATP 10 µM; baseline: DMSO control).
`Oc1ccccc1-c1n[nH]cc1-c1ccnc2ccccc12` — result for “log2 fold change”: 0.15 (Serine/threonine-protein kinase ATG1 (ATG1, Candida albicans, UniProt Q5A649); kinase binding, MIB/MS competition; Candida albicans lysate; 10 µM; baseline: DMSO, negative = stronger binding).
With `c1ccc2c(c1)-c1cccc3c1c-2cc1ccccc13` the fold change was 8.4 (Aryl hydrocarbon receptor; reporter gene, agonist, luciferase reporter; ZF-4; 370.37 µM; baseline: vehicle control).
With `C=C1C(=O)O[C@@H]2C[C@@]3(C)CCCC(=C)[C@@H]3C[C@H]12` the activation was 1.23 fold (NR1H3; reporter gene, Gal4 hybrid reporter; 10 µM; baseline: vehicle).
Under “lipid fraction bound”, `CCCCCCCCCCCCC/C=C/[C@@H](O)[C@H](CO)NC(=O)CCCCCCCCCCCCC` is recorded as 14.5% (SET K222D; lipid binding, GFP pull-down LC-MS/MS; A549 overexpressing GFP-tagged protein; baseline: eluate plus flow-through).
`O=c1nc(SCc2cc(F)cc(C(F)(F)F)c2)nc(SCc2ccc3sccc3c2)[nH]1` has a decatenated DNA of 100% (DNA topoisomerase 2-alpha (TOP2A, Homo sapiens, UniProt P11388); decatenation; 7.8 µM, replicate 2).
The fold change of `Cc1cc2ccccc2c2ccc3ccccc3c12` is reported as 3.88 (Aryl hydrocarbon receptor; reporter gene, agonist, luciferase reporter; ZF-4; 41.15 µM; baseline: vehicle control).
The efficacy of `C[C@H](CCCOc1cccc(CO)c1)[C@H]1CC[C@H]2[C@@H]3CC=C4C[C@@H](O)CC[C@]4(C)[C@H]3CC[C@]12C` is reported as 14.6 ± 0.8% (NR1H3; reporter gene, GAL4-LBD transactivation; HepG2).
`O=C1C[C@@H](c2ccccc2)Oc2cc(O)cc(O)c21` gave a fold change of 0.845 (Aryl hydrocarbon receptor; reporter gene, agonist, luciferase reporter; ZF-4; 10000 µM; baseline: vehicle control).
With `CCOc1ccc(NC(=O)O[C@H](Cn2nc(C(C)C)cc2C(C)C)C(C)C)cc1` the ACh-evoked current was 120 ± 19% (Neuronal acetylcholine receptor; alpha4/beta2 (Homo sapiens, UniProt P17787+P43681); two-electrode voltage clamp; Xenopus oocytes; 10 µM, low-sensitivity stoichiometry, with: ACh 10 µM; baseline: ACh alone).
The unmodified protein of `CCC1(O)CCCN(C(=O)c2ccc(-c3ccc(F)c(NC(=O)CCl)c3)cc2)C1` (stereo not drawn) is reported as 0% (DNA dC->dU-editing enzyme APOBEC-3A (Homo sapiens, UniProt P31941); covalent adduct, intact protein MS; 3 h, 5-fold excess, 125 µM).
For `O=C(O)c1ccc(Nc2ncc3c(n2)-c2ccc(Cl)cc2C(c2c(F)cccc2F)=NC3)cc1`, the remaining activity was 107% (MST1(h); kinase activity; 1 µM).
`CN(C)c1nccc(-c2cnc3ncccn23)n1` has a remaining binding of 42% and 69% (ABL1 F317I; KINOMEscan; 1 µM).
For `COc1cc(Nc2ncc3c(n2)-c2ccc(Cl)cc2C(c2c(F)cccc2OC)=NC3)ccc1C(=O)O`, the remaining activity was 39% (TBK1; kinase activity; 1 µM).
`O=C1CCC(N2C(=O)c3ccccc3C2=O)C(=O)N1` (stereo not drawn) gave a Dmax of 68 ± 6% (Sal-like protein 4 (SALL4, Homo sapiens, UniProt Q9UJQ4); degrader; C33A).
`O=C(c1ccc(Nc2nccc(-c3ccc(Cl)s3)n2)cc1)N1CCC(N2CCCC2)CC1` has a ligand efficiency of 0.3 (Protein kinase 6 (Plasmodium falciparum, UniProt Q8IDW1); binding, KinaseSeeker split luciferase).
`CCCCCCCCCCCCC/C=C/[C@@H](O)[C@H](CO)NC(=O)CCCCCCCCCCCCCCCCCCCCCCCCC` — result for “lipid fraction bound”: 3.7% (SET K222D; lipid binding, GFP pull-down LC-MS/MS; A549 overexpressing GFP-tagged protein; baseline: eluate plus flow-through).
With `CCS(=O)(=O)N1CC(CC#N)(n2cc(-c3ncnc4[nH]ccc34)cn2)C1` the binding distance was 2.71 nm (Alpha-1-acid glycoprotein 1 (ORM1, Homo sapiens, UniProt P02763); FRET; concentration not given).
`Cc1ccc(C(=O)Nc2ccc3ccccc3c2)o1` has a reversal potential of 53.2 mV and 57 mV and 56.1 mV and 50 mV and 59.6 mV (Otop1 (Mus musculus, UniProt Q80VM9); voltage ramp patch-clamp; 10 µM, Cs+ solution).
For `Nc1nc2c(ncn2[C@@H]2O[C@H](COP(=O)(O)O)[C@@H](O)[C@H]2O)c(=O)[nH]1`, the reaction velocity was 0.0995 µM/s and 0.099 µM/s and 0.104 µM/s (GUK1 (Homo sapiens, UniProt Q16774); enzyme activity, NADH-coupled; 2000 µM, with: NaCl 10 mM).
For `NCC(=O)O`, “number of binding sites” read 0.76 ± 0.05 (Lysozyme C (LYZ, Gallus gallus, UniProt P00698); intrinsic fluorescence; concentration not given, pH 6.9, 25 °C, lysozyme 10 µM).
The remaining binding of `C1=C/COCc2cc(ccc2OCCN2CCCC2)Nc2nccc(n2)-c2cccc(c2)COC/1` is reported as 79% (ABL1 F317I; 0.1 µM; baseline: DMSO control).
`CN(C)C(=O)C(CCN1CCC(O)(c2ccc(Cl)cc2)CC1)(c1ccccc1)c1ccccc1` has a V1/2 of 7.4 ± 5 mV (Calcium-activated potassium channel subunit alpha-1, with LRRC26 γ1 subunit (KCNMA1, Homo sapiens, UniProt Q12791); ion current, inside-out patch, mean of individual fits; BKα/γ1 channel; 1 µM, with: nominally 0 Ca2+).
With `CCCCNc1c(C(=O)OCC)c(C)nc2c1cnn2CC.Cl` the maximal response was 43% (GABA-A receptor; alpha-1/beta-2/gamma-2 (Rattus norvegicus, UniProt P18508+P62813+P63138); membrane potential, agonist, QP-DHM fluorescence; HEK293 expressing GABAA; baseline: GABA).
For `NCCS(=O)(=O)O`, “normalised MST signal” read -0.0448 (Sodium- and chloride-dependent taurine transporter (SLC6A6, Homo sapiens, UniProt P31641, Y138A); binding, microscale thermophoresis; 31.3 µM, room temperature, with: 50 nM labelled protein; higher = more binding).
For `CC(C)=CCC/C(C)=C/C=C/C(C)=C/C=C/C(C)=C/C=C/C=C(C)/C=C/C=C(C)/C=C/C=C(\C)CCC=C(C)C`, “quenching rate constant” read 5.4e+11 ± 1.58e+11 M⁻¹ s⁻¹ (Beta-lactoglobulin (LGB, Bos taurus, UniProt P02754); intrinsic fluorescence; 303 K).
`COc1cc(C#CC(=O)c2ccccc2)ccc1O` gave a binding of 87% (mvfR (Pseudomonas aeruginosa, UniProt Q9I4X0); receptor binding; concentration not given, 1.5 h, with: PQS at 1:1 ratio; baseline: control).
With `COc1ccc(C(C)=O)cc1` the Emax was 88 ± 10% (Or8a1 (Mus musculus, UniProt Q60893); odorant-evoked current, agonist; isolated olfactory neurons; baseline: acetophenone saturated response).
Under “thermal stability ratio”, `O=C(COP(=O)(O)O)[C@@H](O)[C@H](O)[C@H](O)COP(=O)(O)O` is recorded as 0.714 and 0.88 and 0.522 (Large ribosomal subunit protein uL13 (Homo sapiens, UniProt P40429); thermal proteome profiling, refers to: RPL13A; HepG2 cell lysate; concentration not given, 57 over 37 °C; baseline: compound over control).
With `Cn1c2c(c3ccc(Cl)c(Cl)c31)C(C#N)C1(CCNCC1)NC2=O` (racemic) the delta Tm was 0.1 °C (Serine/threonine-protein kinase VRK3 (VRK3, Homo sapiens, UniProt Q8IV63); thermal stability, thermal shift; 10 µM; higher = stronger binding).
`O=[N+]([O-])c1cc(C(F)(F)F)ccc1NCc1ccsc1` gave a ΔG of -8.43 ± 0.5 kcal/mol (Endothelial PAS domain-containing protein 1, PAS-B domain (EPAS1, Homo sapiens, UniProt Q99814); binding, ITC, reverse mode).
For `COC(=O)c1cccc(C(=O)c2c[nH]c3ncccc23)n1`, the Emax was 48 ± 5% (Aryl hydrocarbon receptor (AHR, Homo sapiens, UniProt P35869); reporter gene, agonist, XRE luciferase; HepG2; baseline: ITE).
The fold change of `Cc1cccc2c1ccc1cc(C(C)C)ccc12` is reported as 0.883 (Aryl hydrocarbon receptor; reporter gene, agonist, luciferase reporter; ZF-4; 13.72 µM; baseline: vehicle control).
For `Nc1ncnc2c1ncn2[C@@H]1O[C@H](COP(=O)(O)CP(=O)(O)OP(=O)(O)O)[C@@H](O)[C@H]1O`, the calcium influx was 100% and 98.7% (P2X purinoceptor 1 (P2RX1, Homo sapiens, UniProt P51575, F188L); calcium influx; 10 µM; baseline: ionomycin response).

Excerpt of the above:
`Cc1ccc(C(=O)Nc2ccc3ccccc3c2)o1` has a reversal potential of 53.2 mV and 57 mV and 56.1 mV and 50 mV and 59.6 mV (Otop1 (Mus musculus, UniProt Q80VM9); voltage ramp patch-clamp; 10 µM, Cs+ solution).
For `Nc1nc2c(ncn2[C@@H]2O[C@H](COP(=O)(O)O)[C@@H](O)[C@H]2O)c(=O)[nH]1`, the reaction velocity was 0.0995 µM/s and 0.099 µM/s and 0.104 µM/s (GUK1 (Homo sapiens, UniProt Q16774); enzyme activity, NADH-coupled; 2000 µM, with: NaCl 10 mM).
For `NCC(=O)O`, “number of binding sites” read 0.76 ± 0.05 (Lysozyme C (LYZ, Gallus gallus, UniProt P00698); intrinsic fluorescence; concentration not given, pH 6.9, 25 °C, lysozyme 10 µM).
The remaining binding of `C1=C/COCc2cc(ccc2OCCN2CCCC2)Nc2nccc(n2)-c2cccc(c2)COC/1` is reported as 79% (ABL1 F317I; 0.1 µM; baseline: DMSO control).
`CN(C)C(=O)C(CCN1CCC(O)(c2ccc(Cl)cc2)CC1)(c1ccccc1)c1ccccc1` has a V1/2 of 7.4 ± 5 mV (Calcium-activated potassium channel subunit alpha-1, with LRRC26 γ1 subunit (KCNMA1, Homo sapiens, UniProt Q12791); ion current, inside-out patch, mean of individual fits; BKα/γ1 channel; 1 µM, with: nominally 0 Ca2+).
